{"data": "Measured values pooled from the literature", "target": "Wee1-like protein kinase (WEE1, Homo sapiens, UniProt P30291)", "note": "Compare with care: the assays were run in different laboratories.", "UniProt P30291, sequence (whole entry, looked up)": "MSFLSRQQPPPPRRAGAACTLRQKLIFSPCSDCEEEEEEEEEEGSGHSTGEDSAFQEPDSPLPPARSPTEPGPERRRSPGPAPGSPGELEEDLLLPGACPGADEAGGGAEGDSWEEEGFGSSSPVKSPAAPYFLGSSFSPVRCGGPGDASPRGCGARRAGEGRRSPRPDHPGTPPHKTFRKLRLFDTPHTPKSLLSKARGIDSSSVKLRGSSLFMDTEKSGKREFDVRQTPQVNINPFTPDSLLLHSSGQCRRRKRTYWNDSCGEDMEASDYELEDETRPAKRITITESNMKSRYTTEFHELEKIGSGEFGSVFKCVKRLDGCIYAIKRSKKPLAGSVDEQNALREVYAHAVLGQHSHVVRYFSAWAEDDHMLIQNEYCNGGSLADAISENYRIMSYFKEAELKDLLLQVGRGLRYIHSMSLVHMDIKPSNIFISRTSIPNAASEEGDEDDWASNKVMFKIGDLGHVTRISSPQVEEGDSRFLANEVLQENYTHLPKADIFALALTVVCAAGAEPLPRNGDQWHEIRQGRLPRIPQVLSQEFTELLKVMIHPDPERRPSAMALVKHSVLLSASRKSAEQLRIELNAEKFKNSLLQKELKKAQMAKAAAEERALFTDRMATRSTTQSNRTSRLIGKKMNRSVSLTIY"}
{"Compound": "Cc1nc2c(F)cc(-c3nc(Nc4ccc(CNC(=O)CCCCCCC(=O)NO)cc4)ncc3F)cc2n1C(C)C", "test": "enzyme activity, inhibitor", "conditions": "1 µM", "endpoint": "inhibition", "result": "28%"}
{"Compound": "Cc1cnc2nc1Nc1cccc(c1)COC/C=C/COCc1cc(ccc1OCCN1CCOCC1)N2", "test": "binding, competition with immobilised ligand", "conditions": "0.1 µM", "endpoint": "remaining binding", "result": "97%"}
{"Compound": "CCN1CCN(Cc2ccc(NC(=O)c3ccc(C)c(NC(=O)c4cncc(-c5cnn(C)c5)c4)c3)cc2C(F)(F)F)CC1", "test": "binding, competition with immobilised ligand", "conditions": "1 µM", "endpoint": "remaining binding", "result": "95%"}
{"Compound": "Nc1ncc(-c2cc(-c3cnn(CC(F)(F)F)c3)ncc2F)nc1C(=O)NC1CNCC(F)C1 (stereo not drawn)", "test": "enzyme activity", "conditions": "1 µM", "how to read": "reference: DMSO control", "endpoint": "remaining activity", "result": "101%"}
{"Compound": "CS(=O)(=O)Nc1cccc(-c2csc3cnc(Nc4ccc(N5CCN(CCCCCOc6cccc7c6C(=O)N(C6CCC(=O)NC6=O)C7=O)CC5)cc4)nc23)c1 (stereo not drawn)", "test": "probe labelling, inhibitor, KiNativ chemoproteomics", "test system": "MOLT-4", "conditions": "1 µM", "endpoint": "inhibition", "result": "84.9%"}
{"Compound": "Cc1ccc(C(=O)Nc2ccc(CN3CCN(C)CC3)c(C(F)(F)F)c2)cc1C#Cc1cnc2cccnn12", "test": "target engagement, NanoBRET", "test system": "human cells", "endpoint": "upper asymptote", "result": 3.2}
{"Compound": "COc1cc(Nc2nccc(-c3cnn4nc(OC)ccc34)n2)cc(C(F)(F)F)c1", "test": "binding, competition with immobilised ligand", "conditions": "1 µM", "endpoint": "remaining binding", "result": "98%"}
{"Compound": "CCn1cc(C(=O)O)c(=O)c2c(N)c(F)c(NC3CCCCC3)cc21", "test": "kinase activity", "conditions": "0.1 µM, with: ATP at Km", "endpoint": "inhibition", "result": "-0.2%"}
{"Compound": "CCN1CCN(Cc2ccc(C(=O)Nc3ccc(C)c(NCc4cnc5[nH]ccc5c4OC)c3)cc2C(F)(F)F)CC1", "test": "binding, competition with immobilised ligand", "conditions": "1 µM", "endpoint": "remaining binding", "result": "99%"}
{"Compound": "Cc1ccc(-c2c(/C=C(\\C#N)C(=O)NC(C)C)n(CCCO)c3ncnc(N)c23)cc1", "test": "cell-free assay, competition with immobilised ligand", "conditions": "1 µM", "endpoint": "remaining binding", "result": "95%"}
{"Compound": "COc1ccc(O)cc1-c1c[nH]c2ncc(-c3cncc(C(=O)N(C)C)c3)cc12", "test": "binding, competition with immobilised ligand", "conditions": "0.2 µM", "endpoint": "inhibition", "result": "6.13%"}
{"Compound": "NC(=O)[C@@H](O)C[C@H]1CCc2sc3ncnc(O[C@H]4CC[C@H](N5CCOCC5)CC4)c3c21", "test": "enzyme activity, inhibitor", "conditions": "10 µM", "endpoint": "inhibition", "result": "4%"}
{"Compound": "O=C(Cc1ccc(OCc2ccccc2)cc1)NC1(C(=O)O)CCN(C(=O)c2ccc(-c3cccc(Cl)c3)cc2)CC1", "test": "enzyme activity, inhibitor", "conditions": "10 µM", "endpoint": "activity vs control", "result": "102%"}
{"Compound": "CN1CCN(Cc2ccc(-c3ccc(CO[C@H]4CCC[C@@H]4NC(=O)c4cc(-c5cnn(C)c5)cnc4N)cc3)cc2)CC1", "test": "enzyme activity, inhibitor", "conditions": "0.1 µM", "endpoint": "inhibition", "result": "3%"}
{"Compound": "C=CC(=O)N1CCCC(n2c(=O)c3ncccc3n(Cc3ccc(Oc4ccccc4)cc3)c2=O)C1 (stereo not drawn)", "test": "cell-free assay, competition with immobilised ligand", "conditions": "1 µM", "endpoint": "remaining binding", "result": "75%"}
